# Measured values pooled from the literature.
# Compare with care: the assays were run in different laboratories. ± marks the error that the study gave.
# POLB I260M: DNA polymerase beta (POLB, Homo sapiens, UniProt P06746, I260M)
# SCTR: Secretin receptor (SCTR, Homo sapiens, UniProt P47872)
# T1: ssRNA FMR1 5' UTR CGG repeat (Homo sapiens); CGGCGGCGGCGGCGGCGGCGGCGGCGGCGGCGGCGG
SMILES,target,test,system,conditions,how to read,measurement,result
C1=[N+]2CCCC[N+]3=Cc4ccc5[n]4[Au-]23[n]2c1ccc2-c1nc2ccccc2nc1-5.F[P-](F)(F)(F)(F)F,"DNA topoisomerase 1 (TOP1, Homo sapiens, UniProt P11387)",,,,,complete inhibition concentration,5 µM
Cc1ccc(NC(=O)CNS(=O)(=O)c2nc(-c3ccc(OC(F)(F)F)cc3)cc(C(F)(F)F)n2)cc1,"Bifunctional 3'-5' exonuclease/ATP-dependent helicase WRN (WRN, Homo sapiens, UniProt Q14191)",isothermal titration calorimetry,,"concentration not given, 25 °C",,binding enthalpy,~11 kcal/mol
NC(=O)CN1C(=O)C(O)(CC(=O)c2cccc(N)c2)c2ccccc21 (stereo not shown),"uncharacterized protein (Leishmania donovani, UniProt A0A3Q8IA09)",competitive ITC,,added: aspartate 60 µM,,ΔG,-7.49 kcal/mol
Cc1cn(C2CC(O)C(COP(=O)(O)OP(=O)(O)C(F)P(=O)(O)O)O2)c(=O)[nH]c1=O (mixture of isomers),POLB I260M,"nucleotide incorporation rate, substrate, single-turnover kinetics",single-nucleotide gapped DNA,"37 °C, I260M, correct incorporation, added: dTTP opposite template A",,kpol,5.6 ± 1.7 s⁻¹
CCCCCCCCc1ccc(Oc2ccccc2)c(O)c1,"Enoyl-[acyl-carrier-protein] reductase [NADPH] FabI (Staphylococcus aureus, UniProt Q6GI75)","enzyme activity, inhibitor, progress curve kinetics, item: NADPH",,,,Ki,0.00082 µM
C=C1[C@H](O)CC(=C/C=C2\CCC[C@]3(C)[C@@H]([C@@H](C)CCCC)CC[C@@H]23)C[C@H]1O,"Vitamin D3 receptor (Rattus norvegicus, UniProt P13053)","binding, radioligand competition",,,"reference: compound over 1α,25-dihydroxyvitamin D3",Ki ratio,3
CC[C@H](C)[C@H](NC(=O)[C@@H](NC(=O)[C@H](CCCCN)NC(=O)[C@@H](NC(=O)CNC(=O)[C@@H](N)CCCNC(=N)N)[C@@H](C)O)C(C)C)C(=O)N[C@@H](CC(C)C)C(=O)N[C@@H](Cc1c[nH]cn1)C(=O)N[C@@H](CC(C)C)C(N)=O,"Microtubule-associated protein tau (MAPT, Homo sapiens, UniProt P10636)","inhibitor, ThT fluorescence",,"5-fold over protein, added: heparin",,aggregation inhibition,inhibited
COc1ccc(-c2nc(CN3CCN(C(=O)c4ccc(C(C)(C)C)cc4)CC3)no2)cc1,"Potassium voltage-gated channel subfamily KQT member 2 (KCNQ2, Homo sapiens, UniProt O43526)","potassium current, activator, whole-cell patch clamp","CHO, stable",20 µM,reference: current before compound,current fold increase,1.11 ± 0.06
Nc1nc2c(ncn2[C@H]2C[C@H](O)[C@@H](COP(=O)(O)OP(=O)(O)[C@H](Cl)P(=O)(O)O)O2)c(=O)[nH]1,"DNA polymerase beta (POLB, Homo sapiens, UniProt P06746, R183A)","nucleotide incorporation, pre-steady-state kinetics",,opposite dC,reference: R over S,kpol ratio,~2
Nc1nc2c(ncn2[C@H]2C[C@H](O)[C@@H](COP(=O)(O)OP(=O)(O)CP(=O)(O)O)O2)c(=O)[nH]1,POLB I260M,"nucleotide incorporation, substrate, single turnover kinetics",,dG misincorporation opposite A,,kpol/Kd,3.1 ± 1.2 M⁻¹ s⁻¹
CCOC(=O)C(CS)NCCNC(CS)C(=O)OCC (stereo not shown),"Carbamate kinase (Giardia intestinalis, UniProt A8BB85)","enzyme activity, inhibitor, luminescence, ATP detection",Giardia lamblia,,,maximal inhibition,79.4%
CCC(NC(=O)c1cccc(-c2ccc(C)nc2N)c1)c1ccnn1C (stereo not shown),"DNA dC->dU-editing enzyme APOBEC-3A (Homo sapiens, UniProt P31941)","binding, 1H CPMG NMR",,,,signal attenuation,29.2 ± 12.9%
Nc1nc2c(ncn2[C@H]2C[C@H](O)[C@@H](COP(=O)(O)OP(=O)(O)C(Br)(Br)P(=O)(O)O)O2)c(=O)[nH]1,"DNA polymerase beta (POLB, Homo sapiens, UniProt P06746)","nucleotide incorporation, substrate, single turnover kinetics",,dG misincorporation opposite A,,kpol/Kd,7.5 ± 2.4 M⁻¹ s⁻¹
OC(c1cccc(C2=CCCNC2)n1)C(F)(F)F (stereo not shown),"5-hydroxytryptamine receptor 2A (HTR2A, Homo sapiens, UniProt P28223)","β-arrestin recruitment, agonist",,,,Emax,75.8%
COC(=O)C1=CNC=C(C(=O)OC)C1c1ccc(F)c(C(F)(F)F)c1,"Intermediate conductance calcium-activated potassium channel protein 4 (KCNN4, Homo sapiens, UniProt O15554, T250S/V275A)","ion current, whole-cell patch clamp",,pore mutant,reference: mutant over wild type,potency fold shift,~333 fold
CC(C)C1CC(=O)N1S(=O)(=O)c1cccc(Cl)c1 (stereo not shown),"Rhomboid protease AarA (Providencia stuartii, UniProt P46116)","enzyme activity, inhibitor",,100 µM,,remaining activity,71 to 86%
Cc1cc(=O)oc2c(F)c(OP(=O)(O)O)c(F)cc12,"Tyrosine-protein phosphatase non-receptor type 11 (PTPN11, Homo sapiens, UniProt Q06124)",substrate,,fully activated enzyme,,kcat,83.1 ± 2.72 s⁻¹
Nc1nc2c(ncn2C2CC(O)C(COP(=O)(O)OP(=O)(O)C(F)P(=O)(O)O)O2)c(=O)[nH]1 (mixture of isomers),POLB I260M,"nucleotide incorporation rate, substrate, single-turnover kinetics",single-nucleotide gapped DNA,"37 °C, I260M, misincorporation, added: dGTP opposite template A",,kpol,0.007 ± 0.001 s⁻¹
CNc1ccccc1C(=O)O[C@H]1C[C@H](n2cnc3c(N)ncnc32)O[C@@H]1COP(=O)(O)OP(=O)(O)O,"Unconventional myosin-Va (Gallus gallus, UniProt Q02440, D297C/G292C/I296C/S293C/V295G)","stopped-flow FRET, linear fit intercept",,"15 °C, added: MgCl2 2 mM",,dissociation rate constant,2.17 ± 0.25 s⁻¹
[11CH3]Nc1ccc(-c2nc3ccc(O)cc3o2)cn1,"Amyloid-beta precursor protein (APP, Homo sapiens, UniProt P05067)","binding, PET, reference Logan","Alzheimer's disease patients, parietal cortex",,reference: cerebellum,distribution volume ratio,1.68 ± 0.2
CN1CCN(CC(=O)N2N=C3/C(=C/c4ccccc4)CCCC3C2c2ccccc2)CC1 (mixture of isomers),"Polyunsaturated fatty acid lipoxygenase ALOX15B (ALOX15B, Homo sapiens, UniProt O15296)",activator,,"20 µM, added: arachidonic acid",reference: activator 0 µM,enzyme activity,94.9%
CCCN(CC(=O)N(CCC)CC(=O)N(CCC)CC(=O)N(CCC)CC(=O)N(CCC)CC(=O)N(CCC)CC(=O)N(CC(N)=O)Cc1cn(CCCNC(=O)CCCOc2cccc(-c3nc4ccc(-c5nc6ccc(N7CCN(C)CC7)cc6[nH]5)cc4[nH]3)c2)nn1)C(=O)CNCc1cn(CCCNC(=O)CCCOc2cccc(-c3nc4ccc(-c5nc6ccc(N7CCN(C)CC7)cc6[nH]5)cc4[nH]3)c2)nn1,"T1, ssRNA FMR1 5' UTR CGG repeat (Homo sapiens)","protein displacement, competitor, TR-FRET",,,,IC50,23 µM
COc1ccc(-c2cc(C(F)(F)F)nc(NCc3ccc(Cl)cc3)n2)cc1OC,SCTR,"increase of tracer binding, TR-FRET",HEK293 membranes,added: Fluo-Sec 6 nM,,Emax,140 ± 9.7%
N#Cc1cccc(-c2ccc(=O)n(Cc3cccc(-c4ncc(OCC5CCN(CCCCC(=O)Nc6cccc7c6C(=O)N(C6CCC(=O)NC6=O)C7=O)CC5)cn4)c3)n2)c1 (stereo not shown),"Hepatocyte growth factor receptor (MET, Homo sapiens, UniProt P08581)",degrader,EBC-1,,,Dmax,> 95%
COc1cccc(-c2cc(C(F)(F)F)nc(NCc3ccc(F)cc3)n2)c1,SCTR,"increase of tracer binding, TR-FRET",HEK293 membranes,added: Fluo-Sec 6 nM,,Emax,159 ± 12%
N#Cc1cc(C(=O)OCC[18F])c(C(F)(F)F)nc1N1CCN(C(=O)Cc2ccccc2)CC1,"P2Y purinoceptor 12 (P2ry12, Mus musculus, UniProt Q9CPV9)",PET,"mouse, acute kainate epilepsy, ipsilateral hippocampus",60 min,,target to normal ratio,1.81 ± 0.22
COc1ccc(CNc2nc(-c3ccccc3OC)cc(C(F)(F)F)n2)cc1,SCTR,"increase of tracer binding, TR-FRET",HEK293 membranes,added: Fluo-Sec 6 nM,,Emax,135 ± 12%
CCCCCCCC/C=C\CCCCCCCC(=O)OC[C@@H]1OCCC[C@@H]1OP(=O)(O)S (stereo partly shown),"Lysophosphatidic acid receptor 2 (LPAR2, Homo sapiens, UniProt Q9HBW0)","agonist, TGFα shedding",,,,Emax,29%

# For quick reference, copied from above:
SMILES,target,test,system,conditions,how to read,measurement,result
N#Cc1cccc(-c2ccc(=O)n(Cc3cccc(-c4ncc(OCC5CCN(CCCCC(=O)Nc6cccc7c6C(=O)N(C6CCC(=O)NC6=O)C7=O)CC5)cn4)c3)n2)c1 (stereo not shown),"Hepatocyte growth factor receptor (MET, Homo sapiens, UniProt P08581)",degrader,EBC-1,,,Dmax,> 95%
[11CH3]Nc1ccc(-c2nc3ccc(O)cc3o2)cn1,"Amyloid-beta precursor protein (APP, Homo sapiens, UniProt P05067)","binding, PET, reference Logan","Alzheimer's disease patients, parietal cortex",,reference: cerebellum,distribution volume ratio,1.68 ± 0.2
Cc1cn(C2CC(O)C(COP(=O)(O)OP(=O)(O)C(F)P(=O)(O)O)O2)c(=O)[nH]c1=O (mixture of isomers),POLB I260M,"nucleotide incorporation rate, substrate, single-turnover kinetics",single-nucleotide gapped DNA,"37 °C, I260M, correct incorporation, added: dTTP opposite template A",,kpol,5.6 ± 1.7 s⁻¹
N#Cc1cc(C(=O)OCC[18F])c(C(F)(F)F)nc1N1CCN(C(=O)Cc2ccccc2)CC1,"P2Y purinoceptor 12 (P2ry12, Mus musculus, UniProt Q9CPV9)",PET,"mouse, acute kainate epilepsy, ipsilateral hippocampus",60 min,,target to normal ratio,1.81 ± 0.22
